Assay results from different studies.
Lines come from different studies, so protocols differ. Numbers after ± are the reported error.
Cell line: MCF7

`COc1cc(/C=C/C(=O)/C=C(O)/C=C/c2ccc(OCC(=O)N3CCOCCOCCOCCOCC3)c(OC)c2)ccc1OCC(=O)N1CCOCCOCCOCCOCC1` has an IC50 of 8.4 µM (cell growth or viability, SRB).
`CC1=NN(C(N)=S)C(c2ccccc2)C1` (centres unmarked) has an IC50 of 5.8 µM (cell growth or viability, LDH).
`O=C(c1ccc2ccccc2c1)c1cn(-c2ccccc2)nc1C1=Nn2c(Cc3nnc4n3N=C(c3nn(-c5ccccc5)cc3C(=O)c3ccc5ccccc5c3)CS4)nnc2SC1` gave an IC50 of 0.39 µM (cell growth or viability, MTT; 48 h).
With `CCCCn1cc(C(=O)O)c(=O)c2cc(F)c(Nc3ccc(C)cc3)c(N)c21` the IC50 was 6.5 µg/mL (cell growth or viability, SRB; 72 h).
For `COc1cc(/C=C/c2cc(C)n[nH]2)ccc1O`, the IC50 was 42 µM (cell growth or viability, MTT; 48 h).
`O=C(NN=Cc1ccc(O)cc1)Nc1cc2c(Nc3ccc(F)c(Cl)c3)ncnc2cc1OC1CCOC1` (centres unmarked) gave an IC50 of 0.91 µM (cell growth or viability, MTT; 72 h).
`Fc1ccc(-c2cn(CSc3ccccc3)nn2)c(F)c1` has an IC50 of 29.8 µM (cell growth or viability, MTS; 72 h).
`CC(C)(C)c1cc2c(O)c(c1)Cc1cc(C(C)(C)C)cc(c1OCC(=O)Nc1cncc3ccccc13)Cc1cc(C(C)(C)C)cc(c1O)Cc1cc(C(C)(C)C)cc(c1OCC(=O)Nc1cncc3ccccc13)COC2` gave an IC50 of 3.7 µM (cell growth or viability, MTT; 72 h).
`CC(=O)O[C@H]1CC[C@]2(C)[C@H]3CC=C4[C@@H]5CC(C)(C)CC[C@]5(C(=O)O)CC[C@@]4(C)[C@]3(C)CC[C@H]2C1(C)C` has an IC50 of 37.6 µM (cell growth or viability, SRB).
The IC50 of `CCOC(=O)CN1C=C(c2cc(Br)ccc2O)Nc2ccccc21` is reported as 62.4 µM (cell growth or viability, MTT; 48 h).
For `COc1cccc2c1C(=O)c1c(O)c3c(c(O)c1C2=O)C[C@@](O)(C(=O)CO)C[C@@H]3O[C@H]1C[C@H](N)[C@H](O)[C@H](C)O1`, the IC50 was roughly 0.3 µM (cell growth or viability, MTT; 72 h).
`C=C(C)[C@H]1CC[C@@]2(C)CC[C@]3(C)C[C@H]4[C@@H](C)C[C@@]5(O)OC(=O)/C(=C/C[C@H]3[C@H]12)[C@@H]45` gave an IC50 of 22 µM (cell growth or viability, MTT; 72 h).
`CC/C(=C(\c1ccccc1)c1ccc(OCCN(C)CCCCC(=O)NCCCOc2ccc3[nH]cc(CCNC(C)=O)c3c2)cc1)c1ccccc1` has an IC50 of 2.8 µM (cell survival, MTT; day 9, dosed days 2, 4, 7).
`CSc1nc(Nc2cccc(/C(C)=N/NC(=O)c3cccc(Cl)c3)c2)c(C#N)c(-c2ccccc2)n1` has an IC50 of 10.2 µM (cell growth or viability, MTT; 48 h).
`N.N.O=C(CCCc1ccccc1)[O][Pt]([Cl])([Cl])[O]C(=O)CCCc1ccccc1` gave an IC50 of 0.18 ± 0.03 µM (cytotoxicity; 72 h).
With `C[C@@H]1O[C@@H](OC(=O)/C=C/c2ccc(O)c(O)c2)[C@H](OC(=O)/C=C/c2ccc(O)c(O)c2)[C@H](O)[C@H]1O` the IC50 was 17.1 µM (cell growth or viability, MTT; 48 h, serum-free).
`CC(C)Cc1ccc(C(C)C(=O)[O][Re-2]2(=[C]=O)(=[C]=O)(=[C]=O)[n+]3ccc(-c4ccccc4)c4ccc5c(-c6ccccc6)cc[n+]2c5c43)cc1` (racemic) has an IC50 of 0.958 µM (cell growth or viability, resazurin; 72 h).
The IC50 of `CCC1=C(CC)C2=[N+]3C1=Cc1c(CC)c(CC)c4[n]1[Ir-3]31([n+]3ccccc3)([n+]3ccccc3)[n]3c(c(CC)c(CC)c3=CC3=[N+]1C(=C4)C(CC)=C3CC)=C2.Cl` is reported as 0.12 µM (cell growth or viability, MTT; 72 h).
For `Cc1c(C)c(C)[c-](C)c1C.Cc1ccnc(-c2[c-]cccc2)c1.[Cl-].[Ir+3]`, the IC50 was 3.7 ± 0.1 µM (SRB; 24 h, 72 h recovery).
The IC50 of `C#Cc1cccc(Nc2ncnc3cc(OCCOC)c(OCCOC)cc23)c1` is reported as greater than 20 µM (cell growth or viability, trypan blue).
With `CC(C)(C)c1ccc2[c](c1)[Au-]1([Cl])[c]3cc(C(C)(C)C)ccc3-c3cncc-2[n+]31` the IC50 was 8.6 µM (cell growth or viability, MTS).
`COc1ccc2cc3[n+](cc2c1OCc1cn(Cc2ccc([N+](=O)[O-])cc2)nn1)CCc1cc2c(cc1-3)OCO2` has an IC50 of 206 µM (cell growth or viability, MTT).
`CC1(C)O[C@@H]1CC[C@](C)(O)[C@H]1CC[C@]2(C)[C@@H]1CC[C@@H]1[C@@]3(C)CCC(=O)C(C)(C)[C@@H]3CC[C@]12C` has an IC50 of greater than 30 µM (cell growth or viability, MTT).
`COc1ccc2cc3[n+](cc2c1OCc1cn(Cc2ccc(F)cc2Br)nn1)CCc1cc2c(cc1-3)OCO2` has an IC50 of 59.6 µM (cell growth or viability, MTT).
For `Cc1ccccc1[N]1c2ncccc2N=Cc2cc(Br)ccc2[O][Pd]1[CH2]C#N`, the IC50 was 26.9 µM (cell growth or viability, MTT; 48 h).
For `Cc1cc(N2CCN(C(=O)CN3CCCCC3)CC2)n2ncnc2n1`, the IC50 was 67.3 µM (cell growth or viability, MTT).
`COc1ccc(COC[C@](O)(CNCc2ccccc2)[C@@H]2CC[C@@H](C)C[C@H]2OCc2ccc(OC)cc2)cc1` has an IC50 of 1.5 µM (cell growth or viability, MTT; 72 h).
`CCCCCCCCC=CCCCCCCCCn1c(-c2cccnc2)nc(-c2ccc(C)cc2)c1-c1ccc(C)cc1` has an IC50 of greater than 100 µM (cell growth or viability, SRB; 48 h).
With `O=C(C[c-]1cccc1)Oc1ccc(-n2cccc2)cc1.[Fe+2].c1cc[cH-]c1` the IC50 was 103 µM (cell growth or viability, MTT).
`[Cl][Au-]1([Cl])[N+](=P(c2ccccc2)(c2ccccc2)C2C=CC=C2)Cc2cccc[n+]21.[Cl][Au-]1([Cl])[N+](=P(c2ccccc2)(c2ccccc2)C2C=CC=C2)Cc2cccc[n+]21.[Fe+2].[O-][Cl+3]([O-])([O-])[O-].[O-][Cl+3]([O-])([O-])[O-]` has an IC50 of 3.5 µM (cell growth or viability, MTT; 74 h).
`CCN1CCC2(CC1)C/C(=N\NC(=O)Nc1ccc(OC)cc1)c1ccccc1O2` has an IC50 of 39 µM (cell growth or viability, MTT; 48 h).
`COc1ccc(-c2noc(NC(=O)c3ccc(F)c(C(F)(F)F)c3)c2C#N)c(OC)c1` gave an IC50 of 14 µM (cell growth or viability, MTT; 72 h).
The IC50 of `C=C[C@H](OC(C)=O)c1ccc(OC(C)=O)cc1` is reported as 30 µM (cell growth or viability, MTT; 24 h).
For `CCCCCCCCn1c2ccccc2c2cc(-c3cn(-c4ccc(-c5cc(-c6ccccn6)nc(-c6ccccn6)c5)cc4)nn3)ccc21`, the IC50 was 9.96 µM (cell growth or viability, MTS; 72 h).
`O=C(CCc1nc2cc(Cl)ccc2[nH]c1=O)Nc1ccc([N+](=O)[O-])cc1` has an IC50 of 11.9 µM (cell growth or viability, MTT).
`COc1cc(C2COc3cc(O)cc(O)c3C2=NO)c(OC)cc1O` (centres unmarked) gave an IC50 of 110 µM (cell growth or viability, MTT; 72 h).
The IC50 of `CCOC(=O)CS/C(Nc1ccccc1)=C(\C#N)C(=O)Nc1nnc(NC(=O)c2ccccc2)s1` is reported as 69.7 µM (cell growth or viability, MTT; 48 h).
For `CCCCCCCCCCCCn1c(-c2cccnc2)nc(-c2ccc(C)cc2)c1-c1ccc(C)cc1`, the IC50 was greater than 100 µM (cell growth or viability, SRB; 24 h).
`CC1(C)CC2C3=CCC4C5(C)CCC(O)C(C)(CO)C5CCC4(C)C3(C)CC(O)C2(CO)C(O)C1O` (centres unmarked) gave an IC50 of greater than 80 µM (cell growth or viability, CCK-8; 48 h).
For `COc1ccccc1/C=N/NC(=O)c1cc2cc(Nc3nccc(-c4cccnc4)n3)ccc2[nH]1`, the IC50 was 3.36 µM (cell growth or viability, MTT; 48 h).
The IC50 of `N=C(N)NCCC[C@@H]1NC(=O)[C@H](CCCCN)NC(=O)[C@@H](Cc2ccc(O)cc2)NC(=O)[C@H](CC(=O)O)NC(=O)CNC1=O` is reported as greater than 100 µM (cytotoxicity, MTT; 48 h).
With `COc1c(O)cc2oc3cc(O)c(CCC(C)C)c(O)c3c(=O)c2c1CCC(C)C` the IC50 was 8.29 µM (cell growth or viability; 48 h).
The IC50 of `CCCCCCCCn1c(-c2cccnc2)nc(-c2ccccc2)c1-c1ccccc1` is reported as 82.6 µM (cell growth or viability, SRB; 24 h).
For `CCCCCCCCCCCCCCCCOc1c(O)cc(C(=O)O[C@@H]2Cc3c(O)cc(O)cc3O[C@@H]2c2cc(O)c(O)c(O)c2)cc1O`, the IC50 was 51.2 µM (cell growth or viability, CCK-8; 24 h).

Excerpt of the above:
`CC1(C)O[C@@H]1CC[C@](C)(O)[C@H]1CC[C@]2(C)[C@@H]1CC[C@@H]1[C@@]3(C)CCC(=O)C(C)(C)[C@@H]3CC[C@]12C` has an IC50 of greater than 30 µM (cell growth or viability, MTT).
`COc1ccc2cc3[n+](cc2c1OCc1cn(Cc2ccc(F)cc2Br)nn1)CCc1cc2c(cc1-3)OCO2` has an IC50 of 59.6 µM (cell growth or viability, MTT).
For `Cc1ccccc1[N]1c2ncccc2N=Cc2cc(Br)ccc2[O][Pd]1[CH2]C#N`, the IC50 was 26.9 µM (cell growth or viability, MTT; 48 h).
For `Cc1cc(N2CCN(C(=O)CN3CCCCC3)CC2)n2ncnc2n1`, the IC50 was 67.3 µM (cell growth or viability, MTT).
`COc1ccc(COC[C@](O)(CNCc2ccccc2)[C@@H]2CC[C@@H](C)C[C@H]2OCc2ccc(OC)cc2)cc1` has an IC50 of 1.5 µM (cell growth or viability, MTT; 72 h).
`CCCCCCCCC=CCCCCCCCCn1c(-c2cccnc2)nc(-c2ccc(C)cc2)c1-c1ccc(C)cc1` has an IC50 of greater than 100 µM (cell growth or viability, SRB; 48 h).
